Published values from different studies.
Every numbered part comes from another study and shows a few of its results, in no order.

Block 1 — technique: protein-binding microarray; molecule type: double-stranded DNA, one strand shown; medium: in vitro; concentration: 2200 nM top; notes: 60-bp whole probe; added: salmon DNA 0.4 mg/ml; baseline: random background probes; direction: higher = stronger binding; quantity: fitted relative affinity; constant ends, left off below: GCCTAGCAC … GTCTTGATTCGCTTGACGCTGCTG
Target: Interferon regulatory factor 7, full length, phosphomimetic (IRF7, Homo sapiens, UniProt Q92985, residues 1-503, S471D/S472D/S475D/S476D/S477D/S483D/S484D/S487D)
Sequence of UniProt Q92985 (whole entry, unmodified, looked up): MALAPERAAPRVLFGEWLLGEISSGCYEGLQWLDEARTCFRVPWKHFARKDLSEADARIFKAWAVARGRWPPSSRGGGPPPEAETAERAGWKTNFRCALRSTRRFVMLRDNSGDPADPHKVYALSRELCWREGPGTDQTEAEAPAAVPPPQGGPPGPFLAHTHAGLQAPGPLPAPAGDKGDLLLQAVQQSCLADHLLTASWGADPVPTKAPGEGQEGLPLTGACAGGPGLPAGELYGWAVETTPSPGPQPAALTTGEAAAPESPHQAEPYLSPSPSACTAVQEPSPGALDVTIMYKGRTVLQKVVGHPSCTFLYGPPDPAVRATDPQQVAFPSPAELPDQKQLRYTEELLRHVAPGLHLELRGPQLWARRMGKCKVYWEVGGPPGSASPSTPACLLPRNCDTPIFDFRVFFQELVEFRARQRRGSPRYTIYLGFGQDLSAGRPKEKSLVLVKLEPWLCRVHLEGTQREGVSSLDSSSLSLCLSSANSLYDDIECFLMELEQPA
GCCGGTTTCGGGACTGGGGACGTGCTA: 4.94 z-score
GACGGACTGGGTATAGGGACGTGCTAG: -0.998 z-score
ATAGATATGCCAAATCTGTGTGTGCTA: 0.16 z-score
GACGGTAACGGTCTCGGGACGTGCTAG: -0.594 z-score
TTAGATTTCAGGACTGGATTAGTGCTA: -0.19 z-score
TTGGGTCTCGGTCTCGGTTAGTGCTAG: 0.658 z-score
GACGAACTGGGGACTGGATACGTGCTA: 0.0777 z-score
TCCTCTTTCACTGCTCCCCAAGTGCTA: 2.87 z-score
GACGGTTTCGGGTTCCGGGACGTGCTA: 10.3 z-score
TCAATTTTTAGTTAGAAACTGTGCTAG: -0.117 z-score
TATGTTCACTATTTAAGAACGTGCTAG: 0.864 z-score
GACGATTTCAGTTTCGACACGTGCTAG: 4.89 z-score
TTAGGTTTCGGTATCGGTAAGTGCTAG: 7.75 z-score
TTAGATATCGGGTATCCATTAGTGCTA: 0.184 z-score
TTAAGTCTCGGTATCGGTTAGTGCTAG: 0.783 z-score
GACGGTTTCGGGTTTCGGGATGTGCTA: 9.92 z-score
TTAGGTTTCGGTCTCGGTTGGTGCTAG: 7.06 z-score
TTAGGAGTGGGGTTTCGGTTAGTGCTA: 2.97 z-score
GACGGGCTCGGTCTCGGGACGTGCTAG: -1 z-score

Block 2 — technique: protein binding microarray; molecule type: double-stranded DNA, one strand shown; medium: in vitro; concentration: not given; baseline: not given; direction: higher = stronger binding; quantity: E-score
Target: Histone acetyltransferase KAT6A, winged helix 2, GST fusion (KAT6A, Homo sapiens, UniProt Q92794, residues 85-181)
Notes: 8-mer, flanks averaged, mean of 2 arrays, mostly near background
Residues (chain): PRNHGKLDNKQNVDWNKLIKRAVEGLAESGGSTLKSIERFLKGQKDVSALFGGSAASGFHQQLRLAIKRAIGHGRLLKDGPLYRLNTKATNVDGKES
CAGAAGCC: 0.154
AATTGTGA: 0.0243
AAAGACAA: 0.0952
GTCTCTTA: -0.0723
GACAGGCA: 0.1
ATCGGGGC: -0.0518
CGTCCTAC: -0.179
AGATTCAA: -0.046
CGATGTTA: -0.013
GAGCAAAA: 0.0763
AAAATTCA: 0.198
ACCCTACA: -0.0924
CGCTGAAG: 0.117
CCTAAAGA: -0.0695
ACCTTGTG: 0.0427
AGCGTCAC: -0.0656
CGCCACAG: 0.107
TAACGGGA: -0.0886
CTCCACAA: 0.117
GTATGAAA: -0.0351
ACAGACCA: 0.135

Block 3 — technique: universal PBM; molecule type: double-stranded DNA, one strand shown; medium: in vitro; concentration: not given; direction: higher = stronger binding; quantity: E-score
Target: Sal-like protein 4, full length isoform B (SALL4, Homo sapiens, UniProt Q9UJQ4-2, residues 1-616)
Notes: 8-mer, flanks averaged, mean of replicates
GCACCAAC: -0.289
AAGATCTG: -0.139
ATCCCAAG: -0.115
CCTGATCC: -0.173
CAGCATGG: -0.209
GTAGTGAC: -0.0587
CCCAGGGG: -0.391
TGAAACCA: -0.00039
GCTCAGCA: -0.088
CTCGACGC: -0.202
CCTGCGAC: -0.217
GTATAAAC: 0.211
AATTAAGA: 0.263
CAAACGAG: -0.0735
CGGGGGCA: -0.165
ATCGCTTG: -0.0635
CTGGCATA: -0.0206
CGCACGCC: -0.275
AACAGCAC: 0.024
ACCACTTG: 0.0167
GATCCCCC: -0.279
CAAGCATA: 0.134
ACAGACTG: -0.0504

Block 4 — technique: RNA Bind-n-Seq; molecule type: RNA; medium: in vitro; concentration: 365 nM; baseline: no-protein control; direction: higher = stronger binding; quantity: RBNS enrichment (R)
Target: RNA binding protein fox-1 homolog 2, RRM domain, GST-SBP tag (RBFOX2, Homo sapiens, UniProt O43251-10, residues 100-194)
Notes: natural RNA segment, single round, ends assumed
Construct (chain): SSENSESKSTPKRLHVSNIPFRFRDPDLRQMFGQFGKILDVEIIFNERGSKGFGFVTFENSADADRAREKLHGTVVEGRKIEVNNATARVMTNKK
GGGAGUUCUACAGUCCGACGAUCUGAACUUGUUUUAUAUUUGCAUAUCAAGAGUCAAGUAUGAUGUUUCUUUAAGUUGACUUUUUUUACUUCAUUAUUUUUAGGAAUAAAUGUAAGAUUUUACAAAUCUUUUAUGGAAUUCUCGGGUGCCAA: 1.03
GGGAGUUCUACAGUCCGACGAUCGCAAAAAGUUAAGCCUGCUAAGUAUUCAGAUCCCUGUCAUUUACUUCUCAGCAGUCUCAUUCAAGCUAAGGCUUGCAUACUCAAUCUGUGCCGUAGUCUACACAUUUUUAUGGAAUUCUCGGGUGCCAA: 0.344
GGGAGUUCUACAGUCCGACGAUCUUAAACUGGUAUCUUUUCUUAGUGGUACCCAUUCAAUGUAAGCUGGUCCAUGGGAAUGGACAUGAAGAGGAUUUCACAGUAUGUAGAGCAGAAGGCACGUGAAUGUGUUUUGGAAUUCUCGGGUGCCAA: 1.17
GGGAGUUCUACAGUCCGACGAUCUUUUUUAAUUGUGAUCUAUUUUGGCUUAAUGUGAUUACCGCUGUAUUCCAAAAAAAAAAAAAAAACAGGUUCCUGUUCACAAUACCUCAUGUAUCAUCUAGCCAUGCACGUGGAAUUCUCGGGUGCCAA: 0.665
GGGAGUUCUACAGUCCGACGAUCGCCUAACAGAUUGGCUUGUUUUAAAGCAAAGACUGAAUUGAAGGUUACAUGUUUUAGGAUAAACUAAUUUCUUUUGAGUUCAUAAAUCAUUUGUACCCAGAAUGUAUUAAUGGAAUUCUCGGGUGCCAA: 0.37
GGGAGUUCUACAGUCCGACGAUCCAGAGCUCUUUAAAGCUCUGCAGAAGAUUUACAUGUGUUUAUAGAGCUAAGAGAAAUCAGGGCAUGGAAAUUGAGUGUGUAAUAAAAAUUAAACUCUUCAUGUUAUAUAAUGGAAUUCUCGGGUGCCAA: 1.15
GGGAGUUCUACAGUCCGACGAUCCAGCAGCUGCUGCAGCUGCUGCAGCCGCCUCAGUUGGAGGGACCAUUCCGGGACCUGGCCCUGGGGGUGGACAAAGUCCAAGAGAGGGUGGUGAAAGGAAAAUUGCUGGAUGGAAUUCUCGGGUGCCAA: 0.319
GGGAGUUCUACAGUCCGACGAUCAACCCAGAGCCUUUUAUAUGCUGGGCAAGUGCUCUACAGUUUUCACUCUUUAUUCUGAGACAGGGUCUCCCCAUGUUGCCCAGGCUGGUCUUGAACAACUGCCUCACUCUUGGAAUUCUCGGGUGCCAA: 0.409
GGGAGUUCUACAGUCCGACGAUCCUCCUUUGUGAGCCACAGUUGUAGACCGUACCUCAGCCUUGGAGUCAACACAGCCCACAGCCCAUUUUACAGAAACCAAAACUGAGUUCUAACAGGAGGAGUGAUUUGCCUGGAAUUCUCGGGUGCCAA: 0.313
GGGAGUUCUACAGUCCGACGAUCACAAGGAGAACGCAGGUUGAUGCAAGAGGUGGAAAUGUUCUCCCAUAUCAAGAUGCGACCCAAGGGGCUAAGUGGGAACAGUGGUUAUGUGGACUCGUAAGAUUCACAGAUGGAAUUCUCGGGUGCCAA: 1.68
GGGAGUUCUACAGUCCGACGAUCUGAAGGGAUAGGACAAAAGAGACAAUCAAAUAUGGAGCUUAGCAUAGCUAGAAUGGCAUGAUGUCACUGUUCUUUUCCUGUGGCUUUUUAUUGUUGUUUCUCAUCAUUCUUGGAAUUCUCGGGUGCCAA: 0.964
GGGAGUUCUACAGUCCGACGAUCUUUACGUGGUAACUAGUCUUAUAACAUGUAUGUAUCUUUUUUUUGUUGUUCAUCUAAAGCUUUUUAAUCCAAAUAAAUACAGAGUUUGCAAAGUGAUUUGGAUUAACCAGUGGAAUUCUCGGGUGCCAA: 2.14

For quick reference, copied from above (block 1):
TTGGGTCTCGGTCTCGGTTAGTGCTAG: 0.658 z-score
GACGGTTTCGGGTTTCGGGATGTGCTA: 9.92 z-score
GCCGGTTTCGGGACTGGGGACGTGCTA: 4.94 z-score
GACGAACTGGGGACTGGATACGTGCTA: 0.0777 z-score
TTAGATTTCAGGACTGGATTAGTGCTA: -0.19 z-score
TTAAGTCTCGGTATCGGTTAGTGCTAG: 0.783 z-score
TTAGGTTTCGGTCTCGGTTGGTGCTAG: 7.06 z-score
GACGGACTGGGTATAGGGACGTGCTAG: -0.998 z-score
